Measured values from different studies.
Each numbered part is a random draw from the data of one study; scales do not carry over between parts. “And” joins repeats or separate records; there may be more than shown.
Sequence of UniProt Q8IVW4 (whole entry, looked up): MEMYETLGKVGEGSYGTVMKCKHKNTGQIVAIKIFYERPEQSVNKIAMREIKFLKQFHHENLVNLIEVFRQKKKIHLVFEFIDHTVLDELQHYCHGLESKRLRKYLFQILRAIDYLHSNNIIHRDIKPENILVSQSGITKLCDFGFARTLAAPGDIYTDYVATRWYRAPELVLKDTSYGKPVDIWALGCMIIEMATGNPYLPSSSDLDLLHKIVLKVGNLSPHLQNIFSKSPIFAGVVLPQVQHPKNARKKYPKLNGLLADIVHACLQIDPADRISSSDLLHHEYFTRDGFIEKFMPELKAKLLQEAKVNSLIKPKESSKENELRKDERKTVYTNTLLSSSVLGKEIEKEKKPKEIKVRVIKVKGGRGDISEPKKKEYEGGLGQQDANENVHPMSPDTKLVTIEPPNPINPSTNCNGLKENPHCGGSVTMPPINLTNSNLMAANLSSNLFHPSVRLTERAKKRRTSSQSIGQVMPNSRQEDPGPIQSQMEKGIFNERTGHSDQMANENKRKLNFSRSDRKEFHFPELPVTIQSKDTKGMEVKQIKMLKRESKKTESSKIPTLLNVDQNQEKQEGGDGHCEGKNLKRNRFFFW
Sequence of UniProt O43683 (whole entry, looked up): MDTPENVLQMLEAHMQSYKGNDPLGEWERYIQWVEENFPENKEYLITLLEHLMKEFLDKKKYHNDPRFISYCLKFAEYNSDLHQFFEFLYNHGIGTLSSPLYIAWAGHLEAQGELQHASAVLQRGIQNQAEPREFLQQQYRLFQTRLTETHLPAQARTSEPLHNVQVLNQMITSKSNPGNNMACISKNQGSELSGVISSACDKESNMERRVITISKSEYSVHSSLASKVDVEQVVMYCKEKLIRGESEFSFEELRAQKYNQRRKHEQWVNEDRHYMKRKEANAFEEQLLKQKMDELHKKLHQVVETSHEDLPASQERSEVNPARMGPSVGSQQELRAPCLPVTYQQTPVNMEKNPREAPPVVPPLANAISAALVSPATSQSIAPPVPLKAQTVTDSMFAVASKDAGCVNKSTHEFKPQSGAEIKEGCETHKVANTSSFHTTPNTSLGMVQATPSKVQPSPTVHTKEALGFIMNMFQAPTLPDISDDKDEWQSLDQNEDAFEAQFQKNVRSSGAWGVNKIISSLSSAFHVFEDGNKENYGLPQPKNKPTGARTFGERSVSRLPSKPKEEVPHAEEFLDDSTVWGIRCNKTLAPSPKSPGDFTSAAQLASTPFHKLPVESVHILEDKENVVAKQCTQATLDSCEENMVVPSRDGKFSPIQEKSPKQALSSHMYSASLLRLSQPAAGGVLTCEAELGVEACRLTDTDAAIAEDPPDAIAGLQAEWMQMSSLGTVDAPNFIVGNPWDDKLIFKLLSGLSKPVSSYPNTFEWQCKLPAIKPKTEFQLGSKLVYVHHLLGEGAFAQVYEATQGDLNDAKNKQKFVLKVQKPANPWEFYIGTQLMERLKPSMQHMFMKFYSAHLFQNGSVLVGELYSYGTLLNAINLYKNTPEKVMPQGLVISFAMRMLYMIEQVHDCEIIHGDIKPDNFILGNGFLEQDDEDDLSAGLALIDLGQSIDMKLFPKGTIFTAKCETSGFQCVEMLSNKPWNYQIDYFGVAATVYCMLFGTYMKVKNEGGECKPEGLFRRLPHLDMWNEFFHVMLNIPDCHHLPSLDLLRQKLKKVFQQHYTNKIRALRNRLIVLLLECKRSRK
Sequence of UniProt P42336 (whole entry, unmodified, looked up): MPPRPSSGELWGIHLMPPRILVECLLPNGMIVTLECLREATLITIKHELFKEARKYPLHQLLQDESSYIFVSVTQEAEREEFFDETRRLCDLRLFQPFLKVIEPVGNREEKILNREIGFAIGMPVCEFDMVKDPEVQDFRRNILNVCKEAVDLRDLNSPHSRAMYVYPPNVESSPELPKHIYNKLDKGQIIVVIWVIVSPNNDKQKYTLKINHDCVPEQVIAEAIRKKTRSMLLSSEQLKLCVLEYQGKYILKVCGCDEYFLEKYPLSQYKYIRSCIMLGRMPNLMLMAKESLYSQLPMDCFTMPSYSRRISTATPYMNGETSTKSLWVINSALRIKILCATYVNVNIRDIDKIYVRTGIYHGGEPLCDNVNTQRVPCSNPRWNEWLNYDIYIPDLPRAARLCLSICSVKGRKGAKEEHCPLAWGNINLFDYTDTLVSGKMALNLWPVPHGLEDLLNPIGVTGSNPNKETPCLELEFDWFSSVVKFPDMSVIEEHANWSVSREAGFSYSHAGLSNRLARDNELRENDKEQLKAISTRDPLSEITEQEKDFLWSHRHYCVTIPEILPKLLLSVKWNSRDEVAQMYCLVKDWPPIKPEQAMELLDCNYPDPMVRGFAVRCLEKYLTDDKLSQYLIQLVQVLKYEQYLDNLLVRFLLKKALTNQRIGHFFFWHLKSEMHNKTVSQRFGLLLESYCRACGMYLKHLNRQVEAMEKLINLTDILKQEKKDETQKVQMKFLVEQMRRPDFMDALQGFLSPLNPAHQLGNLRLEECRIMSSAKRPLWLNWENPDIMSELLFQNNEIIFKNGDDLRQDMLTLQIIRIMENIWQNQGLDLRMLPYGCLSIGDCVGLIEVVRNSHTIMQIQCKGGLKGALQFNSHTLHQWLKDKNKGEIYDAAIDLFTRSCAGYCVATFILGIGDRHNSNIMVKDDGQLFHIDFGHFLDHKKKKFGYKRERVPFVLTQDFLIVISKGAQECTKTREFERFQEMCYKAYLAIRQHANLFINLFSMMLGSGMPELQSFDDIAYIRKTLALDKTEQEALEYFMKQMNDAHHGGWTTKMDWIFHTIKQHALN
Sequence of UniProt Q02763 (whole entry, looked up): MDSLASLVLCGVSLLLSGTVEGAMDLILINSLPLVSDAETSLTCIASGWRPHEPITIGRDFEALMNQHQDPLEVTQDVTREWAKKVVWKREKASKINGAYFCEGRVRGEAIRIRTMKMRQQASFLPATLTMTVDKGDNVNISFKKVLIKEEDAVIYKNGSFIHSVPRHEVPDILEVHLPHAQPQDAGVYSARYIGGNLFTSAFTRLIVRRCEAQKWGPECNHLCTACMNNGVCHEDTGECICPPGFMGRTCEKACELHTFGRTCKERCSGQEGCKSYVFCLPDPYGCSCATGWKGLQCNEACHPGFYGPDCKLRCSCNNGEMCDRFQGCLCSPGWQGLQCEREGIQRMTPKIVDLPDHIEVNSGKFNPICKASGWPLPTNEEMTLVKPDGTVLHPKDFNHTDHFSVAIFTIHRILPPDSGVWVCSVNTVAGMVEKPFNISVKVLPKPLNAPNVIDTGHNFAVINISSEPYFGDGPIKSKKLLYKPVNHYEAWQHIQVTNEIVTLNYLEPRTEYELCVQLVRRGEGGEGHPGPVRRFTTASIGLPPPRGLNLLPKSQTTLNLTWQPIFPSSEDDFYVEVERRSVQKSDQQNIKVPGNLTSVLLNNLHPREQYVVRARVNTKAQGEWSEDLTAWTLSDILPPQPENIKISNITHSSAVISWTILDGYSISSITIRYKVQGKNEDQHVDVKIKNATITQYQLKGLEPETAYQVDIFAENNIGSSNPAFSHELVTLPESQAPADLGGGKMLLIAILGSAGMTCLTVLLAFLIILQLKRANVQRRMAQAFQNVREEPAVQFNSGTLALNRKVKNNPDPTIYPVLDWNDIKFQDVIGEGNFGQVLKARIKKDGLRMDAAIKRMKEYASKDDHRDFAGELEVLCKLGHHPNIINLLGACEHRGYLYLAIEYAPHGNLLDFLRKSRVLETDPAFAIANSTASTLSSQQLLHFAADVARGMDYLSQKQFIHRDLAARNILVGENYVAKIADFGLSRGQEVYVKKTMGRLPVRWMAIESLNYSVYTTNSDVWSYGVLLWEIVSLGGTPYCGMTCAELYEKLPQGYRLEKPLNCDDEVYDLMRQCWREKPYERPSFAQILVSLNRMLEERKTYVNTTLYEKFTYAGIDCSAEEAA

Set 1 — method: protein-binding microarray; form: hairpin DNA; medium: in vitro; concentration: not given; baseline: not given; reading: higher = stronger binding; constant ends, left off below: GAGGCCG … CGGCCTCACACTC
Target: Krueppel-like factor 3, full length (KLF3, Homo sapiens, UniProt P57682, residues 1-345)
Sequence of UniProt P57682 (whole entry, looked up): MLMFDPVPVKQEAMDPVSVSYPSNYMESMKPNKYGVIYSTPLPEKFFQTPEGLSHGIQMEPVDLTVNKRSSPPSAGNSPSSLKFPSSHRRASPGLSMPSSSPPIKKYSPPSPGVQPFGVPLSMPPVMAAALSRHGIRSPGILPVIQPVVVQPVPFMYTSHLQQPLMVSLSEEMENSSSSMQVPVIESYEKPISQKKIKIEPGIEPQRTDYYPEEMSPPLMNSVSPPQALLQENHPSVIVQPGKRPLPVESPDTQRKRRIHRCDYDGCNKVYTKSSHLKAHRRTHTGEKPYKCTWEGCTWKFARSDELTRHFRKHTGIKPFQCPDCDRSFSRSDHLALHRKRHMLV
Setting: whole hairpin DNA, median over replicate spots
With `GCCGCGCCCAGCCTCCTGGCTGGGCGCGGC (5mC at 37)` the median fluorescence was 8550 a.u.
`ACCAAGCCCAGCCTCCTGGCTGGGCTTGGT` has a median fluorescence of 7680 a.u.
With `ACCAGGCCCAGCCTCCTGGCTGGGCCTGGT (5mC at 33)` the median fluorescence was 7550 a.u.
The median fluorescence of `CGCACGCCCAGCCTCCTGGCTGGGCGTGCG` is reported as 10600 a.u.
With `ACCGCGCGCAGCCTCCTGGCTGCGCGCGGT (5mC at 14 30)` the median fluorescence was 10700 a.u.
`ACCACCCCCAGCCTCCTGGCTGGGGGTGGT (5mC at 13)` has a median fluorescence of 8810 a.u.
The median fluorescence of `ACCGCCGCCAGCCTCCTGGCTGGCGGCGGT (5mC at 13 31)` is reported as 8230 a.u.
For `ACCGCGCCGAGCCTCCTGGCTCGGCGCGGT (5mC at 29)`, the median fluorescence was 8620 a.u.

Set 2 — effect on: enzyme activity; mode: inhibitor; concentration: 0.5 µM; baseline: control
Target: Serine/threonine-protein kinase PAK 1 (PAK1, Homo sapiens, UniProt Q13153)
Sequence of UniProt Q13153 (whole entry, looked up): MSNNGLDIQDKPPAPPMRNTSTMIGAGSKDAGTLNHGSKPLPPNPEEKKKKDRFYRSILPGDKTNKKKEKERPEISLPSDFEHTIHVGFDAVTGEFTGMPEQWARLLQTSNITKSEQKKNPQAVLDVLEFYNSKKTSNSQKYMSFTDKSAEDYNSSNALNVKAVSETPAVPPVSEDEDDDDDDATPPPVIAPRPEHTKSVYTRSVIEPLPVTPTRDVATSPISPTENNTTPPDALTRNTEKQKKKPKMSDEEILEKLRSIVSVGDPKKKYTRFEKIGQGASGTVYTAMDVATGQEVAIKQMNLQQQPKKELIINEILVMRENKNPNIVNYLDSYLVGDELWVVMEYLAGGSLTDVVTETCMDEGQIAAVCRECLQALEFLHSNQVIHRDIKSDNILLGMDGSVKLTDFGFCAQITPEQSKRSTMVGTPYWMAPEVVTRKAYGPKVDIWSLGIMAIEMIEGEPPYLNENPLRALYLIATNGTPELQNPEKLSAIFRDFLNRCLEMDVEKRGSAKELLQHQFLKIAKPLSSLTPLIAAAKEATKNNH
The remaining activity of `COc1cc2c(cc1OC)-c1[nH]nc(Nc3cccc(F)c3)c1C2` is reported as 96.9%.
The remaining activity of `Nc1cccc(-c2cc3c(Oc4cccc(O)c4)ncnc3[nH]2)c1` is reported as 88%.
The remaining activity of `CCOc1nc(NC(=O)Cc2cc(OC)ccc2OC)cc(N)c1C#N` is reported as 102%.
`Ic1cccc(CSc2nnc(-c3ccncc3)o2)c1` has a remaining activity of 94.8%.
The remaining activity of `c1ccc(-c2cnc(Nc3ccc(OCCN4CCCC4)cc3)s2)cc1` is reported as 97%.
The remaining activity of `COc1cc2ncnc(Nc3cccc(Cl)c3)c2cc1OC` is reported as 89.3%.
With `Cn1nc2c3c(cccc31)C(=O)c1ccccc1-2` the remaining activity was 98.5%.

Set 3 — method: competition with immobilised ligand; concentration: 1 µM
SMILES: CN1CCN(c2cnc3c(C4CCN(C(=O)c5ccc(OC(F)(F)F)cc5N)CC4)ncnc3c2)CC1
MATK (Homo sapiens, UniProt P42679); cell-free assay — remaining binding: 100%.
The remaining binding was 100% (GRK2 (Homo sapiens, UniProt P25098); cell-free assay).
The remaining binding was 93% (BUB1 (Homo sapiens, UniProt O43683); cell-free assay).
It gave 100% for remaining binding (MAPK4 (Homo sapiens, UniProt P31152); cell-free assay).
PIK3CA (Homo sapiens, UniProt P42336, E545A); cell-free assay — remaining binding: 89%.
For STK24 (Homo sapiens, UniProt Q9Y6E0); cell-free assay: remaining binding read 100%.
The remaining binding was 75% (MERTK (Homo sapiens, UniProt Q12866); cell-free assay).
For SRPK3 (Homo sapiens, UniProt Q9UPE1); cell-free assay: remaining binding read 100%.
It gave 100% for remaining binding (CDK9 (Homo sapiens, UniProt P50750); cell-free assay).
For MAPK3 (Homo sapiens, UniProt P27361); cell-free assay: remaining binding read 100%.
It gave 100% for remaining binding (PNCK (Homo sapiens, UniProt Q6P2M8); cell-free assay).
The remaining binding was 92% (CDKL3 (Homo sapiens, UniProt Q8IVW4); binding).
For TEK (Homo sapiens, UniProt Q02763); cell-free assay: remaining binding read 74%.
CSNK1G1 (Homo sapiens, UniProt Q9HCP0); cell-free assay — remaining binding: 100%.
For MAPK6 (Homo sapiens, UniProt Q16659); cell-free assay: remaining binding read 100%.
The remaining binding was 100% (CHEK1 (Homo sapiens, UniProt O14757); cell-free assay).
It gave 91% for remaining binding (PRKACB (Homo sapiens, UniProt P22694); cell-free assay).

Mixed results
Under cross-linked residues, `XRCC6 (Homo sapiens, UniProt P12956)` is recorded as “E479 to E10” (SMC1A (Homo sapiens, UniProt Q14683); cross-linking MS; cell fractions; added: DHSO).
`CC(C)n1cnc(-c2ccc(F)cc2)c1-c1ncc(C(=O)Nc2ccc(N3CCN(C)CC3)cc2)[nH]1`: “patients with carbon dioxide decreased” 1% (phase 2a trial; idiopathic pulmonary fibrosis patients; dose not given, grade 1, arms pooled).
`PTH2R (Homo sapiens, UniProt P49190)` — result for cross-linked residues: “D303 to K628” (ARHGEF6 (Homo sapiens, UniProt Q15052); cross-linking MS; cell fractions; added: DMTMM).
`COCc1cc(C(=O)Nc2cc([C@H]3CC[C@@H](OC(=O)NC(C)C)C3)[nH]n2)n(C)n1` gave a cell count of 0.777 and 0.78 and 0.857 (NCI-H1048; Vi-Cell; 62.5 nM, 6 d; baseline: DMSO).
For `FAM98A (Homo sapiens, UniProt Q8NCA5)`, interaction screen read “cross-linked” (RTCB (Homo sapiens, UniProt Q9Y3I0); cross-linking MS; hits only).
`CCC[C@@H]1NC(=O)CSC[C@@H](C(=O)OCC)N(C)C(=O)[C@H](CC(C)C)NC(=O)[C@H](C)N(C)C(=O)[C@@H](CC(C)C)NC(=O)[C@H](C)N(C)C(=O)[C@H]2CCCN2C(=O)[C@H](CC(C)C)NC(=O)CN(C)C1=O` has a logD of -0.0142 (hydrocarbon/water).
For `UQCC2 (Homo sapiens, UniProt Q9BRT2)`, cross-linked residues read “K71 to K288” (UQCC1 (Homo sapiens, UniProt Q9NVA1); cross-linking MS; cell fractions; added: DSSO).

Some of these lines once more (set 2):
The remaining activity of `COc1cc2ncnc(Nc3cccc(Cl)c3)c2cc1OC` is reported as 89.3%.
The remaining activity of `CCOc1nc(NC(=O)Cc2cc(OC)ccc2OC)cc(N)c1C#N` is reported as 102%.
The remaining activity of `Nc1cccc(-c2cc3c(Oc4cccc(O)c4)ncnc3[nH]2)c1` is reported as 88%.
The remaining activity of `COc1cc2c(cc1OC)-c1[nH]nc(Nc3cccc(F)c3)c1C2` is reported as 96.9%.
The remaining activity of `c1ccc(-c2cnc(Nc3ccc(OCCN4CCCC4)cc3)s2)cc1` is reported as 97%.
